# Results gathered from unrelated publications.
# A part holds a random share of what one study measured. Substitutions count along the parent as printed.

# Sample 1 — Molecule: SDSTVTKLDFDLEP; technique: competitive growth deep sequencing; form: peptide; concentration: concentration not given; direction: direction not given
tested on,effect on,mode,strain,setting,growth enrichment score
Saccharomyces cerevisiae,binding,,cyclin E1-Cln2 fusion strain,peptide tiling library,0.276
Saccharomyces cerevisiae,binding,,cyclin D3-Cln2 fusion strain,"tiling library, Cln2 subtracted",0.306
yeast with cyclin F-Cln2 chimera,cell growth,binder,,peptide tiling library,-0.0183
yeast with cyclin A1-Cln2 chimera,cell growth,binder,,peptide tiling library,-0.364
Saccharomyces cerevisiae,binding,,cyclin E1-Cln2 fusion strain,"tiling library, Cln2 subtracted",0.276
yeast with cyclin E2-Cln2 chimera,cell growth,binder,,peptide tiling library,0.357

# Sample 2 — technique: protein-binding microarray; form: double-stranded DNA, one strand shown; matrix: in vitro; concentration: 940 nM top; setting: 60-bp whole probe; together with: salmon DNA 0.4 mg/ml; baseline: random background probes; direction: higher = stronger binding; constant ends, left off below: GCCTAGCAC … GTCTTGATTCGCTTGACGCTGCTG
# Target: Interferon regulatory factor 5, full length, phosphomimetic (IRF5, Homo sapiens, UniProt Q13568-2, residues 1-514, S451D/S453D/S456D/S462D)
Oligonucleotide,fitted relative affinity [z-score]
GACGGACTGGACTTTCGGGATGTGCTA,0.239
TTAGGTCACGGTATCGGTTAGTGCTAG,3.56
TTAGGTCTCGGTTTCAGTTAGTGCTAG,6.39
TTAGAACTGCGACTGGATTAGTGCTAG,-0.329
TTAGGTTCCGGTTTCGGTTTGTGCTAG,8.96
TCTCGCTTCATCTCCCAGACTGTGCTA,8.06
GACGGACTGGGTCTCCGGACGTGCTAG,-0.649
AAGGTTACCCATCTCAAGTAGTGCTAG,-0.17
CACAACCAAACAAGAAGATGGTGCTAG,-0.276
GACGGTTTCGGGTTTCGGGAGGTGCTA,8.85
GACGGTATCCTTTTCCTGAAGTGCTAG,0.421
TTTGGAGTCATTCTCAACCCGTGCTAG,0.0475
TTAGGTATCGGTCTCGGTTGGTGCTAG,10
CACTCTCTACATGTGTTTACGTGCTAG,2
TTAGAAGTGGGGTATCGATTAGTGCTA,2.81
TTTTTTCTACTTCTCTTTTGGTGCTAG,1.94
TTAGATATCGGGATTCGATTAGTGCTA,0.303
GACGATCTCGGTCTCGGGACGTGCTAG,1.59
TTAGGTTTCGGGTTTCTGTTAGTGCTA,10.4
GCTTCTCCTTGGAATAGATCGTGCTAG,-0.0706
GACCATATCGGGTATCGAGACGTGCTA,0.685
TCATGTTTTTTTCTACTTCTGTGCTAG,1.45
TAAGATATCGGGACTGGATTAGTGCTA,-0.0564
TTAGAAATGAGACTGGATTAGTGCTAG,-0.0778
TTAAGACTGGGTTTCGGTTAGTGCTAG,7.62

# Sample 3 — technique: protein binding microarray; form: double-stranded DNA, one strand shown; matrix: in vitro; concentration: not given; baseline: not given; direction: higher = stronger binding
# Target: Histone acetyltransferase KAT6A, winged helix 2, GST fusion (KAT6A, Homo sapiens, UniProt Q92794, residues 85-181)
# Setting: 8-mer, flanks averaged, mean of 2 arrays, mostly near background
# Construct (chain): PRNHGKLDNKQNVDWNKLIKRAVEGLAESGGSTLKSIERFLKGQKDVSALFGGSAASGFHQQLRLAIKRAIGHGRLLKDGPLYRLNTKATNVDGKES
Oligonucleotide,E-score
AGGTTGCG,0.0235
CTATATAC,-0.0261
GTACCTAC,-0.132
GATAAGCC,-0.0854
CCATGTGA,-0.191
ATTCCTCC,0.145
TGGATACA,-0.0831
AGGTCTTC,-0.00615
AAATCCGA,0.0191
GTAAGATA,0.0809
ATAGATGC,-0.103
AACAGCGT,-0.0882
GCTCTTAA,0.106
CAATATTC,-0.156
ACCCGCCA,0.165
CTGTCAGA,0.00494
AAGTTCTA,-0.0826
ACTGTAAC,0.00034
TACACGGA,-0.0203
CCCACAGA,0.0215
AGGCGTGC,0.0722
AGTGCGGC,0.0714
CACCTATG,-0.199
CCACGAGG,0.109
AGTTGCAT,-0.0485

# Sample 4 — technique: universal PBM; form: double-stranded DNA, one strand shown; matrix: in vitro; concentration: 600 nM; direction: higher = stronger binding
# Target: Sal-like protein 4, full length isoform A (SALL4, Homo sapiens, UniProt Q9UJQ4, residues 1-1053)
# Chain of UniProt Q9UJQ4 (whole entry, looked up): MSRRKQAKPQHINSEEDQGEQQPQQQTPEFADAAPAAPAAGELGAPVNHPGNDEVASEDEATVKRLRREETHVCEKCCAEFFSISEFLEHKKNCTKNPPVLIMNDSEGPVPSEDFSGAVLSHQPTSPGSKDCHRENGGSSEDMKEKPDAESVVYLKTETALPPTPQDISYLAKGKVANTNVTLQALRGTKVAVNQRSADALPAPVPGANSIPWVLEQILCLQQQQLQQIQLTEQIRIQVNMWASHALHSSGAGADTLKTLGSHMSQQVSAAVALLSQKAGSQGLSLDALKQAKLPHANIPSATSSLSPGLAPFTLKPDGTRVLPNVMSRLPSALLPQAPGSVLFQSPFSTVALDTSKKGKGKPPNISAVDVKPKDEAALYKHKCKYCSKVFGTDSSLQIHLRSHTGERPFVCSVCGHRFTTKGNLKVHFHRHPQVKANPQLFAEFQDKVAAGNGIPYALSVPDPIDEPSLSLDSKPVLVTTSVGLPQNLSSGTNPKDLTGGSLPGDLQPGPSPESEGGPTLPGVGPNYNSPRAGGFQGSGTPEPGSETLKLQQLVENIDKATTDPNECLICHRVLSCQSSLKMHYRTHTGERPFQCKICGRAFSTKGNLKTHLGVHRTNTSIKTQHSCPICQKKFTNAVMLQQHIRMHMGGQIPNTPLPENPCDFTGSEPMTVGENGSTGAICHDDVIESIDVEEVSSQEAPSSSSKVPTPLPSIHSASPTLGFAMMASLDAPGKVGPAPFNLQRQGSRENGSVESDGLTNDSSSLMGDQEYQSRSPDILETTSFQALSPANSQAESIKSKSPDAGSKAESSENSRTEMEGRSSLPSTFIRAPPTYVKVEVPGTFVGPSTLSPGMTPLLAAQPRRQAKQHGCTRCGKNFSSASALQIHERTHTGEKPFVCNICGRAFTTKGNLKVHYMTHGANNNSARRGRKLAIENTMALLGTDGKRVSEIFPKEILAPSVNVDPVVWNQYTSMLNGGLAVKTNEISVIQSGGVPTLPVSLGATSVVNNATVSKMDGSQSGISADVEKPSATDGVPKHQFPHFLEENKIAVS
# Setting: 8-mer, flanks averaged, mean of replicates
Oligonucleotide,E-score
GGTATCCA,-0.116
AAGCCTGG,-0.256
CAATTGCG,0.0189
ACAGTCTG,-0.0865
AACGAAGG,-0.113
CCTTGCGC,-0.213
ATAGCAGG,-0.00685
CCCTCCAC,-0.134
GGCGGCCC,-0.464
ACACTTAA,0.202
CTATAAGC,0.189
GAGGCCTC,-0.269
CGCGAGAG,-0.23
ATATTTGA,0.376
AGAACGGA,-0.0233
CGCATAAC,0.26
GAGCCCCA,-0.327
CTTACCGA,0.0555
GACTATCC,-0.239
CCCTCATC,-0.0973
AGCTCTCC,-0.166
GAGACGAC,-0.168
AACTAATT,0.197
GCTGGCCC,-0.414
GCTAGCTA,-0.175

# Sample 5 — target: MAFG, bZIP domain (human); technique: DHFR protein complementation; matrix: yeast; baseline: wild-type JUN-FOS pair; direction: higher = stronger binding
# Setting: single substitutions, most at no-binding floor
# Parent: JUN, bZIP domain (human); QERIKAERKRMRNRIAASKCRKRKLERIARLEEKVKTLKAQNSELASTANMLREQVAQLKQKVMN; partner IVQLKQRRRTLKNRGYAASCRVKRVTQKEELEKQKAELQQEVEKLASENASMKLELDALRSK
Variant,binding fitness
L45G,-1.43 natural log
T48W,-1.46 natural log
L52G,-1.53 natural log
L52V,-1.37 natural log
L31E,-1.45 natural log
I28S,-1.4 natural log
S47I,-1.4 natural log
Q55T,-1.51 natural log
S47E,-1.44 natural log
R30Q,-1.43 natural log
I28N,-1.45 natural log
V35A,-1.55 natural log
M51H,-1.46 natural log
R53F,-1.47 natural log
E33T,-1.31 natural log
A49E,-1.49 natural log
E44T,-1.54 natural log

# Sample 6 — technique: RNAcompete; form: RNA; matrix: in vitro; concentration: 20 nM; setting: 7-mer, probes averaged, single round; baseline: mean of 7-mers; direction: higher = stronger binding
# Target: PABPC1L2, full length, GST fusion (mouse, UniProt A0ABA7IW68)
# Residues (chain): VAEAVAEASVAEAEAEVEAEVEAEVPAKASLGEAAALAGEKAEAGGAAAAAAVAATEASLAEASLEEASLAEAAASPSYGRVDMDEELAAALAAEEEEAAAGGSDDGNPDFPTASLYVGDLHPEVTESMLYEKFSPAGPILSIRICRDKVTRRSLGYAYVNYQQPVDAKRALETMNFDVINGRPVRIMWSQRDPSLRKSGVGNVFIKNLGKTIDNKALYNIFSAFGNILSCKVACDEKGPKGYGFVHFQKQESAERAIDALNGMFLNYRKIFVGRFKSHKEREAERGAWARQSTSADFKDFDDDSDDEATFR
Oligonucleotide,7-mer Z-score
AGCUUAG,-0.128
UUAGAGC,0.0406
GGUGGUG,-0.0174
UACCGGU,-0.304
GGUGCCC,-0.144
GGACCUC,-0.117
GCCCGGU,-0.22
UGAGAUG,-0.0718
GCCUUCU,-0.45
UGCGACA,0.000733
GCAGAAC,0.108
CAAGAAG,0.0732
CCUGAGA,-0.0772
UAAUUGC,-0.286
ACGACCU,-0.161
GACCUGU,-0.387
UAAAAAU,10.8
UUGUAAU,-0.318
UAUCCUG,-0.389

# Mixed results
Substance,target,test,test system,setting,how to read,endpoint,value
"PhoQ, residues 284 288 289 292 302 303 TTSMTC","PhoP, residues 12 14 15 18 19 YHFSH (Escherichia coli, UniProt P23836)","Sort-seq, item: YFP reporter",E. coli,"PhoQ-PhoP variant library, together with: 10 µM Mg2+","baseline: high Mg2+ state, higher = stronger signaling",fold induction,10.9

# Repeated from above (sample 3):
Oligonucleotide,E-score
ACTGTAAC,0.00034
GTAAGATA,0.0809
TACACGGA,-0.0203
CCCACAGA,0.0215
AAATCCGA,0.0191
CAATATTC,-0.156
GATAAGCC,-0.0854
CCATGTGA,-0.191
AGGTTGCG,0.0235
TGGATACA,-0.0831
AAGTTCTA,-0.0826
CACCTATG,-0.199
AGTGCGGC,0.0714
ATAGATGC,-0.103
GCTCTTAA,0.106
AACAGCGT,-0.0882
CTGTCAGA,0.00494
ACCCGCCA,0.165
ATTCCTCC,0.145
CTATATAC,-0.0261
